Results gathered from unrelated publications.
Lines come from different studies, so protocols differ. Values joined by “and” are separate records of one study, mostly repeats; a detail may differ. ± marks the error that the study gave.

SMILES | assay | system | conditions | scale | endpoint | result
C#Cc1c(F)ccc2cc(O)cc(-c3ncc4c(N5CC6CCC(C5)N6C(=O)OC(OC(=O)CCC)C5CCCCC5)nc(OC[C@@]56CCCN5C[C@H](F)C6)nc4c3F)c12 (stereo partly shown) |  | simulated gastric fluid | 1 µM, 30 min, 37 °C |  | remaining prodrug | 103%
C=CCN1CCC23c4c5ccc(OC(=O)c6ccc(NC(=O)OC(C)(C)C)cc6)c4OC2C(=O)CCC3(O)C1C5 (stereo not shown) |  | rat plasma | 0 h, together with: loperamide 100 µM |  | remaining compound | 97.6% and 98.3% and 104%
CSCC[C@@H]1NC(=O)[C@H](Cc2ccccc2)NC(=O)CNC(=O)[C@H](NC(=O)[C@@H](N)Cc2ccc(O)cc2)CSSC[C@H](C(=O)N[C@@H](Cc2c[nH]c3ccccc23)C(=O)NCc2cc(C(F)(F)F)cc(C(F)(F)F)c2)NC(=O)[C@@H]2CCCN2C1=O |  | rat plasma | 24 h, 37 °C |  | remaining intact peptide | 70 ± 1%
C=CCN1CCC23c4c5ccc(OC(=O)c6ccccc6)c4OC2C(=O)CCC3(O)C1C5 (stereo not shown) |  | human plasma | 4 h |  | remaining compound | 34.4% and 36% and 35%
Cc1nnc(-c2ccc(CC(=O)NCCCC[C@H](NC(=O)c3ccc(OCc4ccc(B(O)O)cc4)c(-c4nc5ccccc5c(=O)[nH]4)c3)C(=O)NCC(=O)NCC(=O)NCC(=O)N[C@@H](Cc3ccccc3)C(=O)N[C@@H](Cc3ccccc3)C(=O)O)cc2)nn1 | UPLC-MS/MS | human serum | 100 µM, 2.5 h, 37 °C |  | remaining compound | 67.5%
CC[C@H](C)[C@H](NC(=O)[C@@H](NC(=O)[C@H](CCCCN)NC(=O)[C@@H](N)[C@@H](C)O)C(C)C)C(=O)N[C@@H](CC(C)C)C(=O)N[C@@H](Cc1c[nH]cn1)C(N)=O | LC-MS | pronase digest | 200 µM, 2 h, pH 7.5, 37 °C, together with: pronase 2.5 µg/mL |  | remaining intact peptide | 10%
CCCCCCCCCCCC(=O)C(C)C(=O)N1CCC[C@H]1C(=O)NC(C)(C)C(=O)NC(C)(C)C(=O)NC(C)(C)C(=O)N[C@](C)(CC)C(=O)NCCC(=O)N[C@@H](C)C(=O)N[C@](C)(CC)C(=O)N[C@@H](C)C(=O)N[C@@H](CC(C)C)C(=O)N[C@](C)(CC)C(=O)NCCC(=O)N[C@@H](C)C(=O)N[C@](C)(CC)C(=O)NCCC(=O)N[C@@H](C)C(=O)NC(C)(C)C(=O)NC(C)(C)C(=O)NC(C)(C)C(=O)N[C@@H](C)C(=O)N[C@@H](CC(=O)O)C(=O)O (stereo partly shown) | LC-MS | buffer with human neutrophil elastase | 40 µM, 300 min, pH 7.5, 37 °C | relative to: 0 h | remaining intact peptide | 60.5% and 56.4% and 65.5%
C[C@@H](Oc1ccc2c(c1)[C@H]1CCN[C@@]1(C)CO2)c1ccccc1 | HPLC | DPBS | 10 µM, 4 h, together with: CellROX Green 5 µM and tBHP 55 µM |  | remaining compound | 96%
C#Cc1c(F)ccc2cc(O)cc(-c3ncc4c(N5CC6CCC(C5)N6C(=O)OC(C)OC(=O)[C@@H](N)C(C)C)nc(OC[C@@]56CCCN5C[C@H](F)C6)nc4c3F)c12 (stereo partly shown) |  | simulated gastric fluid | 1 µM, 30 min, 37 °C |  | remaining prodrug | 89.6%
C[C@H](NCc1ccc(-c2ccc(C(F)(F)F)cc2)cc1)C(N)=O |  | rat liver microsomes | 1 µM, 30 min |  | remaining compound | 59.5%
